Assay results from different studies.
Every numbered part comes from another study and shows a few of its results, in no order. Positions count from the first letter of the parent shown.

Series 1
Target: CCNE1, cyclin fold, Cln2 fusion (human)
Technique: yeast growth competition, sequencing
Sample: yeast
Notes: weak parent motif
Relative to: not given
Reading: higher = stronger binding
Starting sequence: CDAN1 docking peptide (human); RGARSQLFPPTEA
`Q6A` — result for “normalised enrichment score”: -0.045.
`T11A` — result for “normalised enrichment score”: 0.133.
`F8A`: “normalised enrichment score” 0.274.
`S5A` — result for “normalised enrichment score”: 0.403.
For `R1A`, “normalised enrichment score” read 0.137.
`E12A` — result for “normalised enrichment score”: -0.043.

Series 2
Target: Fragile X messenger ribonucleoprotein 1, C-terminal low-complexity region (Fmr1, Mus musculus, UniProt P35922)
Technique: RNA Bind-n-Seq
Molecule type: RNA
Sample: in vitro
Tested at: 200 nM
Notes: whole 134-nt RNA, ends assumed
Added: 150 mM LiCl
Relative to: input library
Reading: higher = stronger binding
Each molecule: 7-deaza-guanosine replaces G
Shared flanks, not repeated: GGGAGUUCUACAGUCCGACGAUC … UGGAAUUCUCGGGUGUCAAGG
`UGGGAGGUGGAUUUUGUUUAUUUUUUUAGAUCAUUUCCAGGGGUGGGAAUUUUUUUUUAAUAUGUGUCAUGAAUAAAGUUGUUUUUGAAA` gave a log2 enrichment of -0.774.
With `ACCAUGCAGGUCGGCAUCUUUGGGAAGUGGGGCAAGGGGGGGAUAGGGAGGGGGGUAACACUUUGGGAACAGGUGGUCCCAGGUCGUUUC` the log2 enrichment was 1.55.
For `AGUCCUGUGCUACACAUCGUAUGUACCGAAUCGGGGUUUGGGGAGGGGAAAAAGGGGAAAGUAUUAUGUUACGCCGUUCGGAUCUGCACU`, the log2 enrichment was 0.00334.
`CCUGUGCUACACAUCGUAUGUACCGAAUCGGGGAAAAAAAGGGGAGGGGAAAAAAAGGGGAAAGUAUUAUGUUACGCCGUUCGGAUCUGC` has a log2 enrichment of 1.21.
The log2 enrichment of `UCAAGUCCUGUGCUACACAUCGUAUGUACCGAAUCGGAAAAAAAGGUGGAAAGGAAAGUAUUAUGUUACGCCGUUCGGAUCUGCACUUCC` is reported as -0.958.
The log2 enrichment of `CUCAAGUCCUGUGCUACACAUCGUAUGUACCGAAUCGGGGAGGGGAGGAGGGGAAAGUAUUAUGUUACGCCGUUCGGAUCUGCACUUCCA` is reported as -0.693.
With `UGGGAGGUGGAUUUUGUUUAUUUUUUUAGCUCAUUUCCAGGGGUGGGAAUUUUUUUUUAAUAUGUGUCAUGAAUAAAGUUGUUUUAGAAA` the log2 enrichment was 0.039.
`AAGUCCUGUGCUACACAUCGUAUGUACCGAAUCGGAAAAAGGUUUGGUUUUUUUGGAAAGUAUUAUGUUACGCCGUUCGGAUCUGCACUU` has a log2 enrichment of -2.83.
`GCAGGAAGUAAAAACAAAUGGAAAUGCUUCGGAUAGUUGCAGGGGUGGGGGUUGCUAAGGAAAGGGUGGGAUGGGAGUGGGUAAAGAGUU` gave a log2 enrichment of 1.46.
`CAAGUCCUGUGCUACACAUCGUAUGUACCGAAUCGGUGGUUUUUGGUUUUUUUGGAAAGUAUUAUGUUACGCCGUUCGGAUCUGCACUUC` gave a log2 enrichment of -1.03.
For `AAGUCCUGUGCUACACAUCGUAUGUACCGAAUCGGGUGGGAAAGGGAAAAAAAGGGAAAGUAUUAUGUUACGCCGUUCGGAUCUGCACUU`, the log2 enrichment was -0.124.

Series 3
Target: RNA binding protein fox-1 homolog 2, RRM domain, GST-SBP tag (RBFOX2, Homo sapiens, UniProt O43251-10, residues 100-194)
Technique: RNA Bind-n-Seq
Molecule type: RNA
Sample: in vitro
Tested at: 365 nM
Notes: natural RNA segment, single round, ends assumed
Relative to: no-protein control
Reading: higher = stronger binding
Shared flanks, not repeated: GGGAGUUCUACAGUCCGACGAUC … UGGAAUUCUCGGGUGCCAA
Residues (chain): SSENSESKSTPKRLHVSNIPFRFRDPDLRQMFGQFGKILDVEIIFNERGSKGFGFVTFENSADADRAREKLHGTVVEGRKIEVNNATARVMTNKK
Under “RBNS enrichment (R)”, `UCUGUGACUCACCUGCCCUUCCUUCCCCCCUUGGCCCUAGCCGUGCCUCGUCCCACUAUGCACAGAUUGAAACUUCACCUACAAACCUGUUAGUGUGAUCUGUGGAGAAU` is recorded as 0.672.
`CCAGGCAUGUGGUGAGAAACUGCCUUAAUGUGUCUCCUCUGUUCUUGUCAACAGGAGGCUCAAGAUGUGAGAGGUGUGAGUCAGACGCCCGAGGAACUUACAGGAGGAGC` — result for “RBNS enrichment (R)”: 2.36.
`UAAAAUAAUCACCAUAGUAACUUGAUAUGUUAGUAUUUUUCUUUUUCCUUUUAGUAUGUUUCAAGUGCAGUAAUCGUACUUGUCUAUCCAGUUUCUAUGUAUGAUACGAG`: “RBNS enrichment (R)” 0.69.
`UGCUUAAAGCACGGCUUACUUCAUCUGCUCCUUACACACUAAAAUGCUGUUAGUGUGCUCAACUACAGAAAUAGCCGCUGCUAAGUGAUGUAGAUUUUCUACUUGAAUAU`: “RBNS enrichment (R)” 0.478.
For `GACUUCAGAAUGUUGUAGGCCUCAUUAGAGCUUGUUCUCCAAAAACCUGCUUGAAAAAGGCAACGUGUUCUUCACAGUGCUCUCCUGUAAGGACAACGCGGCUCAGUCAG`, “RBNS enrichment (R)” read 0.275.
`GUUCUGCUCUUUUCUUCAUUUCUUUCCAGAACAACUCUUUCCCACCCCAACACCACUGCCACCACCCCUCUUUUUAUCCUGGUGUGAAACAAUGGUAAUUUGAUAUAUGG` — result for “RBNS enrichment (R)”: 0.592.
`GCUGCCACCUGGCAUUUAGUUUAGUGCGGCCAGUGACUGCUUCAAGAGACUUCUGACCUUGCUUCCCAACAGCUAAAGGGCUAACUGUCUUUAUGGAAGGCACUUGUUAC`: “RBNS enrichment (R)” 0.367.
For `CUGAGAAUUCCUGUUACAGUAAACAAAACUAACGUAAUCUACCAUUUCCUACACUAUUUGAGCAUGGAAAUCAUAGUCCCCACUCUGUGAAAACUUAACGCUUUUUGGAA`, “RBNS enrichment (R)” read 0.616.
Under “RBNS enrichment (R)”, `AACCCUGUCAAACAUUAGUACUUUUUAGAAGAAUGCAUGCUUUCCAUAUUUUUUUCCUUACAUAAACAUCAGCUUAGGCAGUAUAAAAAAUAGGACUUGUUUUUUGUUUU` is recorded as 9.8.
For `UCAUAGAGGCCAUUGGCUUCCUUUGUAUAAGGAGAGGGAGAAGUGAUUCUGGAAGGAGAAGUUGGUAUGUCUAGCUUCAUUGCGGCCCCUCGGGCUACCCAGCAAGAGGA`, “RBNS enrichment (R)” read 0.274.
`CUCUCCGCUUGUGACAAAGUCAUUGUUGCCAUCAGGAUUUCAAGUAAUGGGCGUAUCUCAGGGCUAACUAUUGUUUGAAUUAGGCACCAAUAUAUUUUAAAUCAUUUUAU`: “RBNS enrichment (R)” 0.639.
For `CAAGAGGCACACAGAGACAGACCAACUGGCAGCCAGGCAGCCCCAGAGGAGAGAGACAUUCAGACAGAGGAAAGUCUCCCUGCCCCUCAUUCCUUCCAAGAUGAGAAAAA`, “RBNS enrichment (R)” read 0.5.

Series 4
Target: ABI1, truncated, D143A, DHFR fusion (Arabidopsis thaliana)
Technique: DHFR PCA, deep sequencing
Sample: yeast
Notes: methotrexate growth selection, single substitutions
Added: (+)-ABA 17 µM
Relative to: wild-type fitted maximum
Reading: higher = stronger binding
Starting sequence: PYL1, truncated, DHFR fusion (Arabidopsis thaliana); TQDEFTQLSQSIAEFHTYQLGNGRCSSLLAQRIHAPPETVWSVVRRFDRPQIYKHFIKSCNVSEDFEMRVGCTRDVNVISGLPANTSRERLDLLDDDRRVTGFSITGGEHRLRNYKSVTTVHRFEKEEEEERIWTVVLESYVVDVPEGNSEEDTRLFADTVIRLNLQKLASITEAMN; partner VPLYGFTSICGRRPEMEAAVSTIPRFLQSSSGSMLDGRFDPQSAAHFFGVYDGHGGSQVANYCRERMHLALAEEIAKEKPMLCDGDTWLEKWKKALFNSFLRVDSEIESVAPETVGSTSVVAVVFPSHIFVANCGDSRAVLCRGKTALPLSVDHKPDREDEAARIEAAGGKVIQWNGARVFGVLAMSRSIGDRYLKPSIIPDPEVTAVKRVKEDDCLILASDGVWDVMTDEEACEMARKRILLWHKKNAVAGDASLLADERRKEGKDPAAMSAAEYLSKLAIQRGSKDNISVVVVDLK
Under “relative binding score”, `L82E` is recorded as -4.31%.
Under “relative binding score”, `K168S` is recorded as 87.6%.
`Q7L` — result for “relative binding score”: 78.8%.
For `N177A`, “relative binding score” read 104%.
`K168H` — result for “relative binding score”: 82.3%.
For `L166M`, “relative binding score” read 57.9%.
Under “relative binding score”, `Q167H` is recorded as 73.1%.
`F56K`: “relative binding score” 3.32%.
For `T106R`, “relative binding score” read 38.5%.
`G108Q` — result for “relative binding score”: 1.34%.
`R123I`: “relative binding score” 31.2%.
For `T154S`, “relative binding score” read 15.4%.
`P37G` — result for “relative binding score”: 11.9%.
`V121H`: “relative binding score” -1.25%.
`R32T` — result for “relative binding score”: 83.5%.

Series 5
Target: ATF7, bZIP domain (human)
Technique: DHFR protein complementation
Sample: yeast
Notes: single substitutions, most at no-binding floor
Relative to: wild-type JUN-FOS pair
Reading: higher = stronger binding
Starting sequence: JUN, bZIP domain (human); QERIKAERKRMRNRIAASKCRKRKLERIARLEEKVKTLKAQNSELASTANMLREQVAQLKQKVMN; partner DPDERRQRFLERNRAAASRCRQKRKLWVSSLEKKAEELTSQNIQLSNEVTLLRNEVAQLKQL
For `K39S`, the binding fitness was -0.926 natural log.
For `A40Y`, the binding fitness was -1.16 natural log.
`T37A` has a binding fitness of -0.812 natural log.
With `V35P` the binding fitness was -1.47 natural log.
For `N42K`, the binding fitness was -1.36 natural log.
`Q41P` gave a binding fitness of -1.5 natural log.
For `L52W`, the binding fitness was -1.55 natural log.
`A57H` gave a binding fitness of -0.972 natural log.
For `I28A`, the binding fitness was -1.1 natural log.
`A29P` gave a binding fitness of -1.3 natural log.
With `E44S` the binding fitness was -1.1 natural log.
The binding fitness of `A57E` is reported as -0.864 natural log.
With `A29S` the binding fitness was -1.06 natural log.
With `Q55E` the binding fitness was -0.867 natural log.
The binding fitness of `M51L` is reported as -0.875 natural log.
`V56W` has a binding fitness of -1.4 natural log.
The binding fitness of `N42A` is reported as -1.35 natural log.
`R30V` has a binding fitness of -0.796 natural log.
With `E32W` the binding fitness was -1.13 natural log.

For quick reference, copied from above (series 5):
For `K39S`, the binding fitness was -0.926 natural log.
The binding fitness of `A57E` is reported as -0.864 natural log.
`Q41P` gave a binding fitness of -1.5 natural log.
With `E32W` the binding fitness was -1.13 natural log.
For `A40Y`, the binding fitness was -1.16 natural log.
With `Q55E` the binding fitness was -0.867 natural log.
`R30V` has a binding fitness of -0.796 natural log.
